# Published values of several laboratories.
# Each numbered part is a random draw from the data of one study; scales do not carry over between parts. Changes are numbered by the printed parent chain.

# Set 1
# Target: ABI1, truncated, D143A, DHFR fusion (Arabidopsis thaliana)
# Technique: DHFR PCA, deep sequencing
# Matrix: yeast
# Notes: methotrexate growth selection, single substitutions
# Together with: (+)-ABA 200 µM
# Relative to: wild-type fitted maximum
# Direction: higher = stronger binding
# Starting sequence: PYL1, truncated, DHFR fusion (Arabidopsis thaliana); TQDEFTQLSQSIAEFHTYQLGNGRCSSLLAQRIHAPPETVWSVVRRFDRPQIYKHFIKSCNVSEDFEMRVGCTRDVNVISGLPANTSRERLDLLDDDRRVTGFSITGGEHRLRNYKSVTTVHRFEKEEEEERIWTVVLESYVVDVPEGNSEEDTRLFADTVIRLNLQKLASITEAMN
Change,relative binding score [%]
D92V,74.5
V136K,31.2
K116C,93.3
D92Q,66.2
V70H,87.9
A170I,0.666
Q10D,101
E152A,97.5
K168M,88.7
N22S,100
T73K,98.5
Y141D,2.36
S87T,78.2
R123Y,103
S87C,64.1
G102T,27.2
S80C,45.9
E147Y,91.2

# Set 2
# Target: NFE2L1, bZIP domain (human)
# Technique: DHFR protein complementation
# Matrix: yeast
# Notes: single substitutions, most at no-binding floor
# Relative to: wild-type JUN-FOS pair
# Direction: higher = stronger binding
# Starting sequence: JUN, bZIP domain (human); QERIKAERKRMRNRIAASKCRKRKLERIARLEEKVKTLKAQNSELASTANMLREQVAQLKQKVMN; partner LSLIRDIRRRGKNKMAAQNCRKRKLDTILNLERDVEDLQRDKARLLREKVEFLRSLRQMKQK
Change,binding fitness
K34D,-1.47 natural log
E32F,-1.53 natural log
V56P,-1.53 natural log
E33G,-1.49 natural log
L31K,-1.53 natural log
A40T,-1.28 natural log
R53S,-1.48 natural log
S43F,-1.51 natural log
Q58P,-1.54 natural log
A40M,-1.06 natural log
K36R,-1.36 natural log
M51R,-1.47 natural log
Q41P,-1.45 natural log
L52H,-1.54 natural log
K39I,-1.46 natural log
I28A,-1.39 natural log
L45V,-1.53 natural log
I28R,-1.2 natural log
L31C,-1.47 natural log
R30V,-1.4 natural log
T37A,-1.39 natural log
R30T,-1.6 natural log
R30P,-1.48 natural log
L31N,-1.42 natural log
E44F,-1.55 natural log

# Set 3
# Target: Interferon regulatory factor 3, full length, phosphomimetic (IRF3, Homo sapiens, UniProt Q14653, residues 1-427, S386D/S396D/S398D/S402D/T404D/S405D)
# Technique: protein-binding microarray
# Form: double-stranded DNA, one strand shown
# Matrix: in vitro
# Concentration: 2540 nM top
# Notes: 60-bp whole probe
# Together with: salmon DNA 0.4 mg/ml
# Relative to: random background probes
# Direction: higher = stronger binding
# Constant ends, left off below: GCCTAGCAC … GTCTTGATTCGCTTGACGCTGCTG
# Construct (chain): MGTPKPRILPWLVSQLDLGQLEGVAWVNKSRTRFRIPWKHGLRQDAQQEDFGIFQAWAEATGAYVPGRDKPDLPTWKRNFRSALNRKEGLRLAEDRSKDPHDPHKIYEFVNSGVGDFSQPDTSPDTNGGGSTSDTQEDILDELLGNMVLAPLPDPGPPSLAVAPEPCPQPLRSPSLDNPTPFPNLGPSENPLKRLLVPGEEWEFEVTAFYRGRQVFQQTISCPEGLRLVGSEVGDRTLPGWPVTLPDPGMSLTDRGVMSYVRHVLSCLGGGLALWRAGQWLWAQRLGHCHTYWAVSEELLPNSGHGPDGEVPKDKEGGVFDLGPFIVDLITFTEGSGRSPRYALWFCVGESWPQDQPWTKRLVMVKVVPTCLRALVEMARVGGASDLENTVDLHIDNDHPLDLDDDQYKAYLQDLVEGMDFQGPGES
Oligonucleotide,fitted relative affinity
TTAGATCTCAGTTCCGATTAGTGCTAG,1.77 z-score
TTAGGTTTCCTTATCCTATAGTGCTAG,8.38 z-score
CCCAAGATTGCCGTTTCCTAAGTGCTA,3.2 z-score
GCTTTCCCCTTGGACTCTTTGTGCTAG,2.55 z-score
TCAAAAGTCTTTTATGGTACTGTGCTA,-0.34 z-score
AATATGTTCCCTATATAAGGGTGCTAG,2.22 z-score
GACGGACTGGGGTATCGTGACGTGCTA,-0.907 z-score
TCACTTCTTTTTTATTCTACTGTGCTA,2.04 z-score
GACGAACTGGGGGCTGGAGACGTGCTA,-0.283 z-score
GACGGTCTCCTACTGCTGTCGTGCTAG,1.41 z-score
AACGGACTGGGTATCGGGACGTGCTAG,-0.125 z-score
CACGGTATCGGTATCGGGACGTGCTAG,4.29 z-score
GAAGGACTGGGGACTGGGGACGTGCTA,-1.31 z-score
GACGCTTTCAGTCTCGAGACGTGCTAG,2.26 z-score
TTAGGTAGCGGTCTCGGTTAGTGCTAG,0.689 z-score
GACGGACTGCTACTGCTGATGTGCTAG,-0.936 z-score
TCACTTTCCCAGCCTGGGACTGTGCTA,3.91 z-score
TTTACTTTCTGAATGCTCCCGTGCTAG,5.62 z-score
GACGGTTACGGGTTTCGGGACGTGCTA,1.26 z-score
CACGAACTGGGGTATCGAGACGTGCTA,-0.336 z-score
TCAATTCTGCTTTGCAAACTGTGCTAG,0.518 z-score
CTAGGACTGCTTCTCCTTTAGTGCTAG,-0.0314 z-score
TTAGGTATCGACTTACGGTTAGTGCTA,0.637 z-score
TTCCTTTGCTTTCTCCCAAGGTGCTAG,1.57 z-score
TTCTCCATGGGTATGGCCTAGTGCTAG,0.455 z-score

# Set 4
# Target: CCNE2, cyclin fold, Cln2 fusion (human)
# Technique: yeast growth competition, sequencing
# Matrix: yeast
# Notes: weak parent motif
# Relative to: not given
# Direction: higher = stronger binding
# Starting sequence: SLBP docking peptide (human); ARYKRKLLINDFG; partner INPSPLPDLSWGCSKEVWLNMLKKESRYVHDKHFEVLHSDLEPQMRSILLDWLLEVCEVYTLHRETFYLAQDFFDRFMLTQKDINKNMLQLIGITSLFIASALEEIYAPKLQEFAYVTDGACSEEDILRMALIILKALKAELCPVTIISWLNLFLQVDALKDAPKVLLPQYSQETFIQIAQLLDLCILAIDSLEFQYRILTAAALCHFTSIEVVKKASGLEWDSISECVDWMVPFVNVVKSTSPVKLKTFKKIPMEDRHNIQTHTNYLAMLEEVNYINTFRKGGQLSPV
Change,normalised enrichment score
R5N,0.304
L7C,0.754
K4I,0.38
K4W,1.6
Y3G,0.245
N10P,0.867
R5I,1.22
Y3L,1.11
K6C,1.32
L7F,1.03
N10D,0.793
K4A,0.375
Y3I,0.522
L8W,1.14
R5E,0.56
R2L,1.1
L7Y,1.11
N10V,0.289
A1F,0.261

# Set 5
# Target: RING finger protein unkempt homolog, zinc fingers 1-6, GST-SBP tag (UNK, Homo sapiens, UniProt Q9C0B0, residues 30-357)
# Sequence of UniProt Q9C0B0 (30-357, looked up): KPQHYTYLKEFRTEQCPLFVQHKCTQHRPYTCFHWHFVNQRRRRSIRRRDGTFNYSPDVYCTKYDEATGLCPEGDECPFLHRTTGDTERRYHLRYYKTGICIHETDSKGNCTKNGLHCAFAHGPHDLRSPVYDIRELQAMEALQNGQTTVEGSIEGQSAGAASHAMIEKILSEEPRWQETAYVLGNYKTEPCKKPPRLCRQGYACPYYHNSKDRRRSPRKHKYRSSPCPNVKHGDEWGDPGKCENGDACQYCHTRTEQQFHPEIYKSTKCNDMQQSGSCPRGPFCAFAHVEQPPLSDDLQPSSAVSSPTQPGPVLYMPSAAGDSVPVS
# Technique: RNA Bind-n-Seq
# Form: RNA
# Matrix: in vitro
# Concentration: not given
# Notes: RNA with constant flanks, human and mouse sites, ends assumed
# Relative to: input RNA pool
# Direction: higher = stronger binding
# Constant ends, left off below: GGGAGUUCUACAGUCCGACGAUC … CAACAGAGGAUUGAGCAUCA
Oligonucleotide,bound/input enrichment [ratio]
GGUAUCGCUGUUGAUCACCUUGGCCGCAACAUCUUCUGGACAGACUCUAACCUGGAUCGAAUAGAAGUGGCGAAGCUGGACGGCACGCAGCGCCGGGUGCUCUUUGAGACUGACUUGGUG,0.213
UUGUGUAGAAGAUGGACUCUGAAAGACAUUCCAAGAGUGCCGCGGCAGCAUGGGAGCCUCUUAGUGAUUGUGUCAGUAUUAUUGUGGAAGAUUGCCUUUGCUGUUGUAUGUAAAGUUUCA,0.642
CCCAAGGACAGGUGGAAUAACACUCCCAUGGAUGAAGCACUGCACUUUGGACACCAUGAUGUAUUUAAAAUUCUCCAAGAAUACCAAGUCCAGUACACACCUCAAGGAGAUUCUGACAAC,0.228
CCUGACGGCCAGGUCAUCACUAUUGGCAAUGAGCGGUUCCGAUACCCUGAGGCUCUUUUCCAGCCUUCCUUCUUGGGUAUGGAAUCCUGUGGCAUCCACGAAACUACAUUCAAUUCCAUC,0.111
GAAGCCUUGAAGAUCUUCCAGAAAAUAAAGGAUGAAAAGAGUCCAGAAUGGUCCAAAUACUUAGGAUUAAUCAAAAAAUUUGUCACUGAUUCCAAUGCAGUGGUUCAAUUGAAAGGACUA,1.6
UUUUAAGCCCAAGCCCCCGGACACUGCAGCUCUUUUCAGUUUUCGCUAUACCUAAUUCAUUCUUUGCGGCAAAUAAAGCUGAAGAAGCCUGGGAAUAAAGUUUGGAAAGGGUUAAUAAAA,0.29
CACAAGGAGCAGGCGGCCCAGCUGCGGAACCUGGUGCAGUGUGGUGACUUUCCUCAUCUGUUAGUGUACGGACCAUCAGGUGCUGGAAAAAAGACAAGAAUUAUGUGUAUUCUACGUGAA,0.169
GCAGAUGAAGUAGAGUUUACUGUGGUUCCUGAUAUGCUCUCUGCCCAAAGAAAUCAUGCUAUUAGGAUUAAAAAACUUCCCAAGGGCACGGUUUCAUUCCAUUCCCAUUCAGAUCAUCGU,0.308
UUUGGAGGGAGUAGAACAGGACCCCUCUCUGGAAAGAAGUUUGGAAAUCCUGGGGAGAAACUAGUUAAAAAGAAGUGGAAUCUUGAUGAGCUGCCCAAAUUUGAGAAGAAUUUUUAUCAA,3.49
GACUUUUGUGUAAAGUAAUGCAUGCAAUCUUGUAAUGUGGCCUGAAAACAAGCUAACUGUAUUAGAAACUAUUCAAAAACUAGGUAUUUUUAGUGACCUGUAGGCAGUGGCAAAUACAGA,3.08
ACUGAGCAGAAUGAAGAACUGAGCAUCUUAUAUCCAGCCGCCAUUGUGACGAUUGAUGGAUUUAGUCUCUUUCAGUCUCUUCGAGCCUGUCGAAACCAAGUAGCAAAAGCUGCAGCAUCA,0.21
